Experimental data pooled from the literature.
A part holds a random share of what one study measured. Several values in a cell are separate wells, animals, samples, runs or records.
UniProt P42336, sequence (whole entry, unmodified, looked up): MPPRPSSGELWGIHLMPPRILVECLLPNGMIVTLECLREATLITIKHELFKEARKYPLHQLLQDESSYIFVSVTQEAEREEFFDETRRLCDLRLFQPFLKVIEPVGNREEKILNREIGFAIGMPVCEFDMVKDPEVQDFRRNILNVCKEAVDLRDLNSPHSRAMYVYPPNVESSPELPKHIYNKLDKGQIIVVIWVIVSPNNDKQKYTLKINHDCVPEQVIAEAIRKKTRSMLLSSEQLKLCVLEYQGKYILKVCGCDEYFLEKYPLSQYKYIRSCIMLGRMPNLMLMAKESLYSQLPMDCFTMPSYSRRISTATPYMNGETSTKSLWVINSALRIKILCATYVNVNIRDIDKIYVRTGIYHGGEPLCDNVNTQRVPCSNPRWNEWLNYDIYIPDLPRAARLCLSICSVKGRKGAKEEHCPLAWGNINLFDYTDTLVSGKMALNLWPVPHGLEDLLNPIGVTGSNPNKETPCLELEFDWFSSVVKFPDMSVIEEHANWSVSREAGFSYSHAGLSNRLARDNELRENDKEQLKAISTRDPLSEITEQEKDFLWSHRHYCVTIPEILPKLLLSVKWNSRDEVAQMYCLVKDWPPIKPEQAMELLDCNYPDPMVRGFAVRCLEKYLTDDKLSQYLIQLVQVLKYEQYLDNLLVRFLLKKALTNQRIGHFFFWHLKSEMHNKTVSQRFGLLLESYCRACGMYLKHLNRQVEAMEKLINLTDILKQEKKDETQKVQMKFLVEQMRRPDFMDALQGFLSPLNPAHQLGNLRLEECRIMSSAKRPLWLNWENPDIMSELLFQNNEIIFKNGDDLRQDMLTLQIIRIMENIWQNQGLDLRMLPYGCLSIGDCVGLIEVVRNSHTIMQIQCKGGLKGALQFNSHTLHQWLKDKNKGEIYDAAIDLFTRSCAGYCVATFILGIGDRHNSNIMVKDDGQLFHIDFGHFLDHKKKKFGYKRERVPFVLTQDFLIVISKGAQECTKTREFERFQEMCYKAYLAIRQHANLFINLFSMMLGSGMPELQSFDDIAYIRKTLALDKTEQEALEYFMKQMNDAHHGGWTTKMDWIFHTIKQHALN
UniProt P42681, sequence (whole entry, looked up): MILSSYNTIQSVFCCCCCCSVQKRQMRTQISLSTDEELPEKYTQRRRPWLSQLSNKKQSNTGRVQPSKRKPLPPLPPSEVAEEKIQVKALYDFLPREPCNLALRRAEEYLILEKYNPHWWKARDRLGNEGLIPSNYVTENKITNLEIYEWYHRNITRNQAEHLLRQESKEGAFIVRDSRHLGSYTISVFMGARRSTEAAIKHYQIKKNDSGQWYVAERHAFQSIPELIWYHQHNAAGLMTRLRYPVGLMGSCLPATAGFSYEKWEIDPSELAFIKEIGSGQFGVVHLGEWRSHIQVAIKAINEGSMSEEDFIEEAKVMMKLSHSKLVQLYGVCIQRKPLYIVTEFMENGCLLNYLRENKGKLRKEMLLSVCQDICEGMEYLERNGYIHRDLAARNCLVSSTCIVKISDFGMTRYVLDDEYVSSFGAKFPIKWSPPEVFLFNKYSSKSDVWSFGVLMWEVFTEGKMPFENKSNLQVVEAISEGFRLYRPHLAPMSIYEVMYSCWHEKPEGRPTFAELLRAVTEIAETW
UniProt Q9BWU1, sequence (whole entry, looked up): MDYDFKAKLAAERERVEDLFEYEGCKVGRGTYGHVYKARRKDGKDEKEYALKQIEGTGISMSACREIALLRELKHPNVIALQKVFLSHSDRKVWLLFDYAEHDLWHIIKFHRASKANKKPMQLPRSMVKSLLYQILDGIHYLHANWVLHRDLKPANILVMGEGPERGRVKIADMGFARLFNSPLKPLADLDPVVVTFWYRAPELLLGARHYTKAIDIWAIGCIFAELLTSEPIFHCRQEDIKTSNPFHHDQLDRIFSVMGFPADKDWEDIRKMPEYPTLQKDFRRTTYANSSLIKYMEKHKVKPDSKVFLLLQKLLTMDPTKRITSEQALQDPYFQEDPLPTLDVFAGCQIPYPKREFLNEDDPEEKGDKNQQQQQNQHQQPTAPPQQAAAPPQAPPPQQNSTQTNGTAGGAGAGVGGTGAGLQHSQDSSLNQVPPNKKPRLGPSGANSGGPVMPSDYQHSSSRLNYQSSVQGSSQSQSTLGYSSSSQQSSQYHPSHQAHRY
UniProt Q86Y07, sequence (whole entry, looked up): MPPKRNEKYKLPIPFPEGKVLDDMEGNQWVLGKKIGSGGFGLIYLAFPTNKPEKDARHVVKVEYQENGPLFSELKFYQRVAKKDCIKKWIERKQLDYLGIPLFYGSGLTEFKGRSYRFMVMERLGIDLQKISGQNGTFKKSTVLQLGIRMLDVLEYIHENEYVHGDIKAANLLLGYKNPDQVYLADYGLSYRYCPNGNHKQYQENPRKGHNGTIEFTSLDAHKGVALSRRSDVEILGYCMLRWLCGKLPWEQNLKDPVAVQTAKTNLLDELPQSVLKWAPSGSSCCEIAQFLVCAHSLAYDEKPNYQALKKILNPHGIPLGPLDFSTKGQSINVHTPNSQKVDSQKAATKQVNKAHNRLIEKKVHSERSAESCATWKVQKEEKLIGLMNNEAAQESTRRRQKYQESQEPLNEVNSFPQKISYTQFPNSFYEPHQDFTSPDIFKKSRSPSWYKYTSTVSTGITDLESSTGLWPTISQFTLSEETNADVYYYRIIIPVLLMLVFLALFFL
UniProt O75676, sequence (whole entry, looked up): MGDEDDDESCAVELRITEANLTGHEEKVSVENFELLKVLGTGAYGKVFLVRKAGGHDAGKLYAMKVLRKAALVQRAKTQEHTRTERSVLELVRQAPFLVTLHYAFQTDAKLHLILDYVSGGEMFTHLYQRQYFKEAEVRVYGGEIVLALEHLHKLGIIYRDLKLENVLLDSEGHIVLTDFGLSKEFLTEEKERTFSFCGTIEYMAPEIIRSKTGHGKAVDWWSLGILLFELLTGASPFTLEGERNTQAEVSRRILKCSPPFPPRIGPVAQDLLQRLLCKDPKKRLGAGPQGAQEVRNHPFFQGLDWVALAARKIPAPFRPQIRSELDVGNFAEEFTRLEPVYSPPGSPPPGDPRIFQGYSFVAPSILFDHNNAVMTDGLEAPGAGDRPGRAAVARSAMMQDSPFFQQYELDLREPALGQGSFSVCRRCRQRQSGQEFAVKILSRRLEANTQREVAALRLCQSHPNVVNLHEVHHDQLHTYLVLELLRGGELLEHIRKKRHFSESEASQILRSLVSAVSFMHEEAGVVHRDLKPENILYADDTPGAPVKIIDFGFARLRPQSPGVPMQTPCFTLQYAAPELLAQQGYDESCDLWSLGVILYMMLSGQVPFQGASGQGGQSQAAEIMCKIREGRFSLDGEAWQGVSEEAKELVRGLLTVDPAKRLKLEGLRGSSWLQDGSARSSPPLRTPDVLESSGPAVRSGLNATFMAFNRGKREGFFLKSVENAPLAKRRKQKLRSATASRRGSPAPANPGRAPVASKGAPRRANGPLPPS
UniProt O14976, sequence (whole entry, looked up): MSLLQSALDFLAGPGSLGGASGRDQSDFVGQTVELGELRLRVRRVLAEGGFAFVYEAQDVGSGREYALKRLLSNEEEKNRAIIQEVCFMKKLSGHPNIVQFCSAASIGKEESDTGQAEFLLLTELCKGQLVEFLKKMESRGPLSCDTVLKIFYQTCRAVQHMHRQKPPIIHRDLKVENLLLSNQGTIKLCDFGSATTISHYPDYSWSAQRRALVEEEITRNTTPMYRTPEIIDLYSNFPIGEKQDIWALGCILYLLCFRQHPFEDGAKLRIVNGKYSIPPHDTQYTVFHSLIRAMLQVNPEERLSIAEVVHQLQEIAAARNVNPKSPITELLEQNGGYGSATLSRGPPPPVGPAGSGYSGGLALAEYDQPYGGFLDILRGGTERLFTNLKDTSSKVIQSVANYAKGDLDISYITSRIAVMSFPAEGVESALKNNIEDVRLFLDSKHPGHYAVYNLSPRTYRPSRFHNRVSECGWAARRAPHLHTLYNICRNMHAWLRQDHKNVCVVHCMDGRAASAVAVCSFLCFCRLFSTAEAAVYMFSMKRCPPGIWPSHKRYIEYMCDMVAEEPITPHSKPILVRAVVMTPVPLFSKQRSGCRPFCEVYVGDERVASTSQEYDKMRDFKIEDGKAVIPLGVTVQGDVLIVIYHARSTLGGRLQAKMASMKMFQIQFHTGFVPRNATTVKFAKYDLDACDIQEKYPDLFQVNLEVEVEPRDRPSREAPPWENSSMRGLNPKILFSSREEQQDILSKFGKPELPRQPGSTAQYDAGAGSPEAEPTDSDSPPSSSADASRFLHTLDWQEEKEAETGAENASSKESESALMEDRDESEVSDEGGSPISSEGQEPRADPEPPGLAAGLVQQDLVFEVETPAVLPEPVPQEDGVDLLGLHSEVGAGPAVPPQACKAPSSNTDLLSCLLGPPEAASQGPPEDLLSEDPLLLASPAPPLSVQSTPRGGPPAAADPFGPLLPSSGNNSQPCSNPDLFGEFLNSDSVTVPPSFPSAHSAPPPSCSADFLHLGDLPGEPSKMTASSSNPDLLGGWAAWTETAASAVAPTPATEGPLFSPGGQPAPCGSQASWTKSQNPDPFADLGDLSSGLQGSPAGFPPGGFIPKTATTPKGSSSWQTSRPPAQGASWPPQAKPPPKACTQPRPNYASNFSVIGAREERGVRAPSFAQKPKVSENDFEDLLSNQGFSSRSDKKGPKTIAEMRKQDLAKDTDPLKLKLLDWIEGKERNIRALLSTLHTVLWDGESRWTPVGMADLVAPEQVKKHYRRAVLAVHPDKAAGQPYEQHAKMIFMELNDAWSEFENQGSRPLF
UniProt Q8N752, sequence (whole entry, looked up): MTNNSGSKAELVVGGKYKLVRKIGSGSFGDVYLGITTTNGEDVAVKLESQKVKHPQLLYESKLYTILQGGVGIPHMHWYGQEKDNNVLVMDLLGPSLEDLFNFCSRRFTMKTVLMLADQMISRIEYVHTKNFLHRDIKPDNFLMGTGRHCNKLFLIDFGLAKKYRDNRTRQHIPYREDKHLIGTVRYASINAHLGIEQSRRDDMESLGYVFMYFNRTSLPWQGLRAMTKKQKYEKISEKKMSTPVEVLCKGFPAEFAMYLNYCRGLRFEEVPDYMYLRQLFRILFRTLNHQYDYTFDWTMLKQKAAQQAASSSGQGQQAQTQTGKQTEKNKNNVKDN

Block 1
Compound: COc1ccc2[nH]c3c4[nH]c5ccc(OC)cc5c4c4c(c3c2c1)C(=O)NC4=O
Endpoint: remaining binding
Ephrin type-B receptor 1 (EPHB1, Homo sapiens, UniProt P54762); binding, competition with immobilised ligand; 1 µM: 77%
Tyrosine-protein kinase TXK (TXK, Homo sapiens, UniProt P42681); binding, competition with immobilised ligand; 1 µM: 100%
Serine/threonine-protein kinase VRK2 (VRK2, Homo sapiens, UniProt Q86Y07); binding, competition with immobilised ligand; 1 µM: 98%
Phosphatidylinositol 4,5-bisphosphate 3-kinase catalytic subunit alpha isoform (PIK3CA, Homo sapiens, UniProt P42336, Q546K); binding; 1 µM: 91%
Serine/threonine-protein kinase WNK3 (WNK3, Homo sapiens, UniProt Q9BYP7); binding; 1 µM: 92%
Cyclin-dependent kinase 19 (CDK19, Homo sapiens, UniProt Q9BWU1); DiscoverX cell-free binding; 1000 nM: 100%
Cyclin-dependent kinase-like 3 (CDKL3, Homo sapiens, UniProt Q8IVW4); binding, competition with immobilised ligand; 1 µM: 91%
Cyclin-G-associated kinase (GAK, Homo sapiens, UniProt O14976); binding, competition with immobilised ligand; 1 µM: 0.3%
MAP kinase-activated protein kinase 5 (MAPKAPK5, Homo sapiens, UniProt Q8IW41); binding; 1 µM: 90%
Calcium/calmodulin-dependent protein kinase type II subunit gamma (CAMK2G, Homo sapiens, UniProt Q13555); binding; 1 µM: 80%
Activin receptor type-1-like (ACVRL1, Homo sapiens, UniProt P37023); binding, competition with immobilised ligand; 1 µM: 100%

Block 2
Target: Mitogen-activated protein kinase kinase kinase 3 (MAP3K3, Homo sapiens, UniProt Q99759)
Read-out: enzyme activity
Action: inhibitor
Concentration: 0.5 µM
Relative to: control
Endpoint: remaining activity
Target sequence (Q99759 1-626): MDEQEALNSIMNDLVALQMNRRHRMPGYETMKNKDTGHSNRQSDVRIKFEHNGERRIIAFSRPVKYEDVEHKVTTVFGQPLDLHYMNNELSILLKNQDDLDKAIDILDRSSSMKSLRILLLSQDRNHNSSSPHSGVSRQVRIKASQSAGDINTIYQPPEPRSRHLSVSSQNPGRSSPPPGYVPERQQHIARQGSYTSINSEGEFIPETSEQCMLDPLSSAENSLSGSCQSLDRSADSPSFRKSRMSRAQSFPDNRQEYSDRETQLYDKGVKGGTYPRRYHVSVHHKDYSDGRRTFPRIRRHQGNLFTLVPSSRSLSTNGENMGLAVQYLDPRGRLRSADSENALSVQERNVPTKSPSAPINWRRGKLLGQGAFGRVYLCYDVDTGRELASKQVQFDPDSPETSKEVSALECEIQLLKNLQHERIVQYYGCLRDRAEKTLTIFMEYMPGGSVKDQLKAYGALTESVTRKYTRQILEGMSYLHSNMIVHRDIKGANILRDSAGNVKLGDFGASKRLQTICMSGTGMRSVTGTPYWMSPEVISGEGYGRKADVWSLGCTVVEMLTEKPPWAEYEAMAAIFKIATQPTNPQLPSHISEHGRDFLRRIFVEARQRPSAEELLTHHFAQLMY
CN(C)C[C@H]1CCn2c(c(C3=C(c4cn(C)c5ccccc45)C(=O)NC3=O)c3ccccc32)C1: 86.1%
CCN(CC)C(=O)c1ccc(Nc2nc(OCC3CCCCC3)c3[nH]cnc3n2)cc1: 47.3%
O=C1c2ccccc2-c2n[nH]c3cccc1c23: 105%
Cc1cn(-c2cc(NC(=O)c3ccc(C)c(Nc4nccc(-c5cccnc5)n4)c3)cc(C(F)(F)F)c2)cn1: 115%
O=c1cc(-c2cccc3c2Sc2ccccc2S3)oc(N2CCOCC2)c1: 137%
CCOc1nc(NC(=O)Cc2cc(OC)ccc2OC)cc(N)c1C#N: 97.1%
COc1cc2c(cc1OC)-c1[nH]nc(Nc3cccc(F)c3)c1C2: 103%
O=C(Nc1cccc(Nc2nccc(Nc3cccc(C(F)(F)F)c3)n2)c1)C1CC1: 97.9%
N#C/C(=C\c1ccc(O)c(O)c1)C(=O)NCc1ccccc1: 102%
CN([C@@H](Cc1ccc(OS(=O)(=O)c2cccc3cnccc23)cc1)C(=O)N1CCN(c2ccccc2)CC1)S(=O)(=O)c1cccc2cnccc12: 96.4%
CCN(CC)CCNC(=O)c1c(C)[nH]c(/C=C2\C(=O)Nc3ccc(F)cc32)c1C: 42%
N#Cc1c(NC(=O)c2cccc3ccccc23)sc2c1CCCC2: 99.8%
O=C(NC(NC(=S)Nc1ccc(F)c([N+](=O)[O-])c1)C(Cl)(Cl)Cl)C(c1ccccc1)c1ccccc1 (centres unmarked): 118%
CCN(CC)CCNC(=O)c1c(C)[nH]c(/C=C2\C(=O)Nc3ccc(Cl)cc32)c1C: 30.6%
Ic1cccc(CSc2nnc(-c3ccncc3)o2)c1: 89.6%
Cn1nc2c3c(cccc31)C(=O)c1ccccc1-2: 94.4%
COc1cc2ncnc(Nc3cccc(Cl)c3)c2cc1OC: 88.3%
c1ccc(-c2cnc(Nc3ccc(OCCN4CCCC4)cc3)s2)cc1: 99.2%
O=C1C(Cl)=C(N2C(=O)CCC2=O)C(=O)c2ccccc21: 95.5%
C[C@@H]1CCN(C(=O)CC#N)C[C@@H]1N(C)c1ncnc2[nH]ccc12: 115%
Nc1cccc(-c2cc3c(Oc4cccc(O)c4)ncnc3[nH]2)c1: 96.4%
Cc1cc2ncc(-c3ccccc3)nc2cc1C: 103%
Cc1nc2cc3nc(-c4cccs4)cnc3cc2n1C: 117%
COc1cc2ncnc(Nc3ccc(O)c(Br)c3)c2cc1OC: 82%
c1ccc(-c2[nH]ncc2-c2ccnc3ccccc23)nc1: 79.4%

Block 3
Structure (SMILES): CC(=O)N[C@@H](Cc1c[nH]c2ccccc12)C(=O)N[C@@H](CCC(=O)C=[N+]=[N-])C(=O)OC(C)C
Species: C57BL/6 CES1-/- mice, EL4 tumour
Route: subcutaneous
Dose: 0.3 mg/kg/day DON equivalent
Time: 5 days
Direction: higher = more metabolite
Endpoint: metabolite peak intensity
LC-MS/MS metabolomics, refers to: 2'-deoxyuridine; EL4 tumour; normalised to tissue mass: 417000 a.u. and 861000 a.u. and 846000 a.u. and 900000 a.u. and 586000 a.u. and 702000 a.u.
UPLC-MS/MS metabolomics, refers to: N-delta-acetylornithine; EL4 tumour; normalised to tissue mass: 260000 a.u. and 271000 a.u. and 182000 a.u. and 323000 a.u. and 273000 a.u. and 148000 a.u.
UPLC-MS/MS, refers to: inosine; EL4, tumour; normalised to tissue mass: 2.83e+07 a.u. and 2.89e+07 a.u. and 2.07e+07 a.u. and 1.92e+07 a.u. and 2.56e+07 a.u. and 2.95e+07 a.u.
UPLC-MS/MS metabolomics, refers to: N-acetylglucosamine 6-phosphate; EL4 tumour; normalised to tissue mass: 1.85e+06 a.u. and 2.42e+06 a.u. and 2.72e+06 a.u. and 2.71e+06 a.u. and 1.54e+06 a.u. and 2.56e+06 a.u.
LC-MS/MS metabolomics, refers to: phenylpyruvate; EL4 tumour: 504000 a.u. and 407000 a.u. and 487000 a.u. and 872000 a.u. and 380000 a.u. and 552000 a.u.
LC-MS/MS metabolomics, refers to: 3-hydroxyisobutyrate; EL4 tumour; normalised to tissue mass: 5.29e+06 a.u. and 3.96e+06 a.u. and 4.85e+06 a.u. and 8.91e+06 a.u. and 4.46e+06 a.u. and 3.08e+06 a.u.
LC-MS/MS metabolomics, refers to: oxalate; EL4 tumour: 2.15e+06 a.u. and 1.97e+06 a.u. and 1.56e+06 a.u. and 2.4e+06 a.u. and 1.31e+06 a.u. and 2.03e+06 a.u.
LC-MS/MS metabolomics, refers to: 2-phosphoglycerate; EL4 tumour; normalised to tissue mass: 1.25e+07 a.u. and 1.67e+07 a.u. and 1.46e+07 a.u. and 1.18e+07 a.u. and 5.42e+06 a.u. and 1.05e+07 a.u.

Block 4
SMILES: C[C@@]1(Cc2ccc(C#N)cc2)C(=O)N(c2cc(Cl)cc(Cl)c2)c2ncc(C(=O)NC3(c4nc(C5CCC5)no4)CC3)n21
Concentration: 1 µM
Endpoint: remaining binding
Cyclin-dependent kinase 19 (CDK19, Homo sapiens, UniProt Q9BWU1); competition binding: 76%
Epidermal growth factor receptor (EGFR, Homo sapiens, UniProt P00533, del747-750/T751S); cell-free assay, competition with immobilised ligand: 100%
Serine/threonine-protein kinase MRCK beta (CDC42BPB, Homo sapiens, UniProt Q9Y5S2); cell-free assay, competition with immobilised ligand: 100%
Ribosomal protein S6 kinase alpha-4, N-terminal kinase domain (RPS6KA4, Homo sapiens, UniProt O75676); cell-free assay, competition with immobilised ligand: 95%
Serine/threonine-protein kinase D3 (PRKD3, Homo sapiens, UniProt O94806); cell-free assay, competition with immobilised ligand: 87%
Casein kinase I isoform alpha-like (CSNK1A1L, Homo sapiens, UniProt Q8N752); cell-free assay, competition with immobilised ligand: 89%
MAP/microtubule affinity-regulating kinase 4 (MARK4, Homo sapiens, UniProt Q96L34); cell-free assay, competition with immobilised ligand: 100%
Phosphatidylinositol 4,5-bisphosphate 3-kinase catalytic subunit alpha isoform (PIK3CA, Homo sapiens, UniProt P42336, E542K); cell-free assay, competition with immobilised ligand: 83%
Hepatocyte growth factor receptor (MET, Homo sapiens, UniProt P08581, M1250T); cell-free assay, competition with immobilised ligand: 100%
Mitogen-activated protein kinase kinase kinase 3 (MAP3K3, Homo sapiens, UniProt Q99759); cell-free assay, competition with immobilised ligand: 100%
Serine/threonine-protein kinase haspin (HASPIN, Homo sapiens, UniProt Q8TF76); cell-free assay, competition with immobilised ligand: 100%
Receptor-type tyrosine-protein kinase FLT3 (FLT3, Homo sapiens, UniProt P36888, D835H); cell-free assay, competition with immobilised ligand: 100%
Cyclin-dependent kinase 13 (CDK13, Homo sapiens, UniProt Q14004); cell-free assay, competition with immobilised ligand: 100%
Tyrosine-protein kinase TXK (TXK, Homo sapiens, UniProt P42681); binding, competition with immobilised ligand: 100%
Ribosomal protein S6 kinase alpha-6, C-terminal kinase domain (RPS6KA6, Homo sapiens, UniProt Q9UK32); cell-free assay, competition with immobilised ligand: 100%

Repeated from above (block 4):
Mitogen-activated protein kinase kinase kinase 3 (MAP3K3, Homo sapiens, UniProt Q99759); cell-free assay, competition with immobilised ligand: 100%
Ribosomal protein S6 kinase alpha-6, C-terminal kinase domain (RPS6KA6, Homo sapiens, UniProt Q9UK32); cell-free assay, competition with immobilised ligand: 100%
Hepatocyte growth factor receptor (MET, Homo sapiens, UniProt P08581, M1250T); cell-free assay, competition with immobilised ligand: 100%
Serine/threonine-protein kinase MRCK beta (CDC42BPB, Homo sapiens, UniProt Q9Y5S2); cell-free assay, competition with immobilised ligand: 100%
